Measurements from different studies.
Lines come from different studies, so protocols differ. “And” joins repeats or separate records; there may be more than shown.
U2AF2: U2AF2 148-342 (Homo sapiens, UniProt P26368)
B1: spo0J K259A (Bacillus subtilis, UniProt P26497); chain MAKGLGKGINALFNQVDLSEETVEEIKIADLRPNPYQPRKHFDDEALAELKESVLQHGILQPLIVRKSLKGYDIVAGERRFRAAKLAGLDTVPAIVRELSEALMREIALLENLQREDLSPLEEAQAYDSLLKHLDLTQEQLAKRLGKSRPHIANHLRLLTLPENIQQLIAEGTLSMGHGRTLLGLKNKNKLEPLVQKVIAEQLNVRQLEQLIQQLNQNVPRETKKKEPVKDAVLKERESYLQNYFGTTVNIKRQKKKGAIEIEFFSNEDLDRILELLSERES
B2: Nefl 85-415 (Mus musculus, UniProt P08551); sequence looked up; chain SIRTQEKAQLQDLNDRFASFIERVHELEQQNKVLEAELLVLRQKHSEPSRFRALYEQEIRDLRLAAEDATNEKQALQGEREGLEETLRNLQARYEEEVLSREDAEGRLMEARKGADEAALARAELEKRIDSLMDEIAFLKKVHEEEIAELQAQIQYAQISVEMDVSSKPDLSAALKDIRAQYEKLAAKNMQNAEEWFKSRFTVLTESAAKNTDAVRAAKDEVSESRRLLKAKTLEIEACRGMNEALEKQLQELEDKQNADISAMQDTINKLENELRSTKSEMARYLKEYQDLLNVKMALDIEIAAYRKLLEGEETRLSFTSVGSITSGYSQ
B3: ACAT1 35-427 Y407F (Homo sapiens, UniProt P24752); chain SKPTLKEVVIVSATRTPIGSFLGSLSLLPATKLGSIAIQGAIEKAGIPKEEVKEAYMGNVLQGGEGQAPTRQAVLGAGLPISTPCTTINKVCASGMKAIMMASQSLMCGHQDVMVAGGMESMSNVPYVMNRGSTPYGGVKLEDLIVKDGLTDVYNKIHMGSCAENTAKKLNIARNEQDAYAINSYTRSKAAWEAGKFGNEVIPVTVTVKGQPDVVVKEDEEYKRVDFSKVPKLKTVFQKENGTVTAANASTLNDGAAALVLMTADAAKRLNVTPLARIVAFADAAVEPIDFPIAPVYAASMVLKDVGLKKEDIAMWEVNEAFSLVVLANIKMLEIDPQKVNINGGAVSLGHPIGMSGARIVGHLTHALKQGEFGLASICNGGGGASAMLIQKL
B4: sso0001 1-202 (Sulfolobus solfataricus, UniProt Q97TX9); chain MITEFLLKKKLEEHLSHVKEENTIYVTDLVRCPRRVRYESEYKELAISQVYAPSAILGDILHLGLESVLKGNFNAETEVETLREINVGGKVYKIKGRADAIIRNDNGKSIVIEIKTSRSDKGLPLIHHKMQLQIYLWLFSAEKGILVYITPDRIAEYEINEPLDEATIVRLAEDTIMLQNSPRFNWECKYCIFSVICPAKLT
B5: protein S723T (Penicillium verruculosum, UniProt A0A348FUE1); sequence looked up; chain MSPMDLQESAAALVRQLGERVEDRRGFGFMSPAIYDTAWVSMISKTIDDQKTWLFAECFQYILSHQLEDGGWAMYASEIDAILNTSASLLSLKRHLSNPYQITSITQEDLSARINRAQNALQKLLNEWNVDSTLHVGFEILVPALLRYLEDEGIAFAFSGRERLLEIEKQKLSKFKAQYLYLPIKVTALHSLEAFIGAIEFDKVSHHKVSGAFMASPSSTAAYMMHATQWDDECEDYLRHVIAHASGKGSGGVPSAFPSTIFESVWPLSTLLKVGYDLNSAPFIEKIRSYLHDAYIAEKGILGFTPFVGADADDTATTILVLNLLNQPVSVDAMLKEFEEEHHFKTYSQERNPSFSANCNVLLALLYSQEPSLYSAQIEKAIRFLYKQFTDSEMDVRDKWNLSPYYSWMLMTQAITRLTTLQKTSKLSTLRDDSISKGLISLLFRIASTVVKDQKPGGSWGTRASKEETAYAVLILTYAFYLDEVTESLRHDIKIAIENGCSFLSERTMQSDSEWLWVEKVTYKSEVLSEAYILAALKRAADLPDENAEAAPVINGISTNGFEHTDRINGKLKVNGTNGTNGSHETNGINGTHEIEQINGVNGTNGHSDVPHDTNGWVEEPTAINETNGHYVNGTNHETPLTNGISNGDSVSVHTDHSDSYYQRSDWTADEEQILLGPFDYLESLPGKNMRSQLIQSFNTWLKVPTESLDVIIKVISMLHTATLLIDDIQDQSILRRGQPVAHSIFGTAQAMNSGNYVYFLALREVQKLQNPKAISIYVDSLIDLHRGQGMELFWRDSLMCPTEEQYLDMVANKTGGLFCLAIQLMQAEATIQVDFIPLVRLLGIIFQICDDYLNLKSTAYTDNKGLCEDLTEGKFSFPIIHSIRSNPGNRQLINILKQKPREDDIKRYALSYMESTNSFEYTRGVVRKLKTEAIDTIQGLEKHGLEENIGIRKILARMSLEL
B6: CRYAB S59D (Homo sapiens, UniProt P02511); chain MDIAIHHPWIRRPFFPFHSPSRLFDQFFGEHLLESDLFPTSTSLSPFYLRPPSFLRAPDWFDTGLSEMRLEKDRFSVNLDVKHFSPEELKVKVLGDVIEVHGKHEERQDEHGFISREFHRKYRIPADVDPLTITSSLSSDGVLTVNGPRKQVSGPERTIPITREEKPAVTAAPKK
B7: Pah F80L (Rattus norvegicus, UniProt P04176); sequence looked up; chain MAAVVLENGVLSRKLSDFGQETSYIEDNSNQNGAISLIFSLKEEVGALAKVLRLFEENDINLTHIESRPSRLNKDEYEFLTYLDKRTKPVLGSIIKSLRNDIGATVHELSRDKEKNTVPWFPRTIQELDRFANQILSYGAELDADHPGFKDPVYRARRKQFADIAYNYRHGQPIPRVEYTEEEKQTWGTVFRTLKALYKTHACYEHNHIFPLLEKYCGFREDNIPQLEDVSQFLQTCTGFRLRPVAGLLSSRDFLGGLAFRVFHCTQYIRHGSKPMYTPEPDICHELLGHVPLFSDRSFAQFSQEIGLASLGAPDEYIEKLATIYWFTVEFGLCKEGDSIKAYGAGLLSSFGELQYCLSDKPKLLPLELEKTACQEYSVTEFQPLYYVAESFSDAKEKVRTFAATIPRPFSVRYDPYTQRVEVLDNTQQLKILADSINSEVGILCNALQKIKS
B8: SERPINA1 25-314 C232S (Homo sapiens, UniProt P01009); sequence looked up; chain EDPQGDAAQKTDTSHHDQDHPTFNKITPNLAEFAFSLYRQLAHQSNSTNIFFSPVSIATAFAMLSLGTKADTHDEILEGLNFNLTEIPEAQIHEGFQELLRTLNQPDSQLQLTTGNGLFLSEGLKLVDKFLEDVKKLYHSEAFTVNFGDTEEAKKQINDYVEKGTQGKIVDLVKELDRDTVFALVNYIFFKGKWERPFEVKDTEEEDFHVDQVTTVKVPMMKRLGMFNIQHSKKLSSWVLLMKYLGNATAIFFLPDEGKLQHLENELTHDIITKFLENEDRRSASLHLPK
B9: RBKS N57A (Homo sapiens, UniProt Q9H477); sequence looked up; chain MAASGEPQRQWQEEVAAVVVVGSCMTDLVSLTSRLPKTGETIHGHKFFIGFGGKGAAQCVQAARLGAMTSMVCKVGKDSFGNDYIENLKQNDISTEFTYQTKDAATGTASIIVNNEGQNIIVIVAGANLLLNTEDLRAAANVISRAKVMVCQLEITPATSLEALTMARRSGVKTLFNPAPAIADLDPQFYTLSDVFCCNESEAEILTGLTVGSAADAGEAALVLLKRGCQVVIITLGAEGCVVLSQTEPEPKHIPTEKVKAVDTTGAGDSFVGALAFYLAYYPNLSLEDMLNRSNFIAAVSVQAAGTQSSYPYKKDLPLTLF
B10: ilvA 335-514 (Escherichia coli, UniProt P04968); sequence looked up; chain EQREALLAVTIPEEKGSFLKFCQLLGGRSVTEFNYRFADAKNACIFVGVRLSRGLEERKEILQMLNDGGYSVVDLSDDEMAKLHVRYMVGGRPSHPLQERLYSFEFPESPGALLRFLNTLGTYWNISLFHYRSHGTDYGRVLAAFELGDHEPDFETRLNELGYDCHDETNNPAFRFFLAG
B11: zwf 1-509 (Synechocystis sp. PCC 6803, UniProt P73411); chain MVTLLENPFRTGLRQERTPEPLILTIFGASGDLTQRKLVPAIYQMKRERRLPPELTVVGFARRDWSHDHFREQMRKGIEEFSTGIGSEDLWNEFAQGLFYCSGNMDDPESYLKLKNFLGELDEKRNTRGNRVFYLAVSPNFFPPGIKQLGAAGMLSDPVKSRIVIEKPFGRDLSSAQSLNRVVQSVCKENQVYRIDHYLGKETVQNLMVFRFANAIFEPLWNRQFVDHVQITVAETVGVEERAGYYESAGALRDMVQNHLMQLFCLTAMDPPNAIDADSIRNEKVKVLQATRLADINNLENAGIRGQYKAGWMGGKPVPGYREEPGVDPSSTTPTFAALKLMVDNWRWQGVPFYLRTGKRMPKKVSEIAIQFRQVPLLIFQSVAHQANPNVLSLRIQPNEGISLRFEAKMPGSELRTRTVDMDFSYGSSFGVAAADAYHRLLLDCMLGDQTLFTRADEVEEAWRVVTPVLSAWDAPSDPLSMPLYEAGTWEPAEAEWLINKDGRRWRRL

NEFL (Homo sapiens, UniProt P07196)
subunits per oligomer (itself; native MS): 4

B1 (spo0J K259A)
subunits per oligomer (itself; SEC-MALS): 2

B2 (Nefl 85-415)
subunits per oligomer (itself; AUC, electron microscopy): 2 and 4

B3 (ACAT1 35-427 Y407F)
subunits per oligomer (itself; cross-linking; Y407F mutant): 4

B4 (sso0001 1-202)
subunits per oligomer (itself; AUC): 9.5 protomers

B5 (protein S723T)
subunits per oligomer (itself; class averages, 2D, cryo-EM): 6

B6 (CRYAB S59D)
subunits per oligomer (itself; SEC-MALS): 22 subunits

GUACAUUUU (ssRNA)
Kd (U2AF2; sequencing of bound RNA; RNA; motif only): 2.51 µM

MKIITVKLPEQFLEAIDELVNTGRYGSRSEVIRAAIGDFIRKELWVTTEE (SiRe_1577 (Saccharolobus islandicus, UniProt F0NFD7); sequence looked up)
subunits per oligomer (itself; SEC): 2

ATP2A2 SERCA2a (Homo sapiens, UniProt P16615-2)
subunits per oligomer (itself; SEC; cell lysate; not purified, endogenous): 2

B7 (Pah F80L)
subunits per oligomer (itself; SEC): 4 and 2

MYOC, N-linked glycans (Homo sapiens, UniProt Q99972)
subunits per oligomer (itself; cross-linking): 8

SLC24A1 (Gallus gallus, UniProt Q9IAL8)
subunits per oligomer (itself; cross-linking): 2

B8 (SERPINA1 25-314 C232S)
subunits per oligomer (itself; AUC; velocity sedimentation): 2

B9 (RBKS N57A)
subunits per oligomer (itself; mass photometry): 2

B10 (ilvA 335-514)
subunits per oligomer (itself; SEC): 2

CUCUUUUUC (ssRNA)
Kd (U2AF2; sequencing of bound RNA; RNA; motif only): 4.45 µM

B11 (zwf 1-509)
subunits per oligomer (itself; SEC-MALS): 4

KEAFWDRCLSVINLMASKMLQINA
activity change (Cyclin-dependent kinase 5, with p25 (CDK5, Homo sapiens, UniProt Q00535); phosphotransferase activity, radiometric; peptide; concentration not given, 10% DMSO, added: histone substrate; relative to: p5-WT peptide): 28%
